Measurements of several laboratories.
Every numbered part comes from another study and shows a few of its results, in no order.
UniProt P49137, sequence (whole entry, looked up): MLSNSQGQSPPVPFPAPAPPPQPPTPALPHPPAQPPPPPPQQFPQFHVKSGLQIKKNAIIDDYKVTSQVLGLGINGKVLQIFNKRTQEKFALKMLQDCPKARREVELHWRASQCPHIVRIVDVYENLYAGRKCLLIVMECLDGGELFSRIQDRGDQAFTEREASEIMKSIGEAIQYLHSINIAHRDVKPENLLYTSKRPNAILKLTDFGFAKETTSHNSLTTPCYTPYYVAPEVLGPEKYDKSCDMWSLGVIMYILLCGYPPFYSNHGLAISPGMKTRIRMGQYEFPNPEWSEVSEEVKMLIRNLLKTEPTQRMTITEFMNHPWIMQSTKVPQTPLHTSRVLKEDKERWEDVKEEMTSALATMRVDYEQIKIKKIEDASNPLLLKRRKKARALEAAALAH
UniProt P11362, sequence (whole entry, looked up): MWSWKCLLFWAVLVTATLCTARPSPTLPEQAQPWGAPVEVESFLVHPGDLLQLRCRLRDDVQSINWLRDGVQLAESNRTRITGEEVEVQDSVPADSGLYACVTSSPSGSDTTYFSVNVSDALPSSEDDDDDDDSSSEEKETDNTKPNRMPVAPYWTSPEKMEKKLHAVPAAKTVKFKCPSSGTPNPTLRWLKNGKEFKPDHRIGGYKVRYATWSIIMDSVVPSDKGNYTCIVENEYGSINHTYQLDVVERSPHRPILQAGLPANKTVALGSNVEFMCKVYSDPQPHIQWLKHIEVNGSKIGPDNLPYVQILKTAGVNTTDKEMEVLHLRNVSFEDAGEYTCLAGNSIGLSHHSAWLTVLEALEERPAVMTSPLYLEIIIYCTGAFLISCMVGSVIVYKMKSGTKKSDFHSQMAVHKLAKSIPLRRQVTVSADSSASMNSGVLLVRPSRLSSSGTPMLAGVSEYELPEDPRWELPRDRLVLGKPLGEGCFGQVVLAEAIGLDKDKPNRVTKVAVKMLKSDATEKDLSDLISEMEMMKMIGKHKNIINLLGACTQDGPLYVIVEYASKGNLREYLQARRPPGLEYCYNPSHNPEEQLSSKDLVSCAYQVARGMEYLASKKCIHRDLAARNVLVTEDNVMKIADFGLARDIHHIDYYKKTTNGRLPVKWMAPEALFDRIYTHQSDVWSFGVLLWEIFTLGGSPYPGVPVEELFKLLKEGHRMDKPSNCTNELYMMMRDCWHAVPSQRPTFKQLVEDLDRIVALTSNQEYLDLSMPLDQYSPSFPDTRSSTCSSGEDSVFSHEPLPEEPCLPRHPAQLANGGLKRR
UniProt Q99558, sequence (whole entry, looked up): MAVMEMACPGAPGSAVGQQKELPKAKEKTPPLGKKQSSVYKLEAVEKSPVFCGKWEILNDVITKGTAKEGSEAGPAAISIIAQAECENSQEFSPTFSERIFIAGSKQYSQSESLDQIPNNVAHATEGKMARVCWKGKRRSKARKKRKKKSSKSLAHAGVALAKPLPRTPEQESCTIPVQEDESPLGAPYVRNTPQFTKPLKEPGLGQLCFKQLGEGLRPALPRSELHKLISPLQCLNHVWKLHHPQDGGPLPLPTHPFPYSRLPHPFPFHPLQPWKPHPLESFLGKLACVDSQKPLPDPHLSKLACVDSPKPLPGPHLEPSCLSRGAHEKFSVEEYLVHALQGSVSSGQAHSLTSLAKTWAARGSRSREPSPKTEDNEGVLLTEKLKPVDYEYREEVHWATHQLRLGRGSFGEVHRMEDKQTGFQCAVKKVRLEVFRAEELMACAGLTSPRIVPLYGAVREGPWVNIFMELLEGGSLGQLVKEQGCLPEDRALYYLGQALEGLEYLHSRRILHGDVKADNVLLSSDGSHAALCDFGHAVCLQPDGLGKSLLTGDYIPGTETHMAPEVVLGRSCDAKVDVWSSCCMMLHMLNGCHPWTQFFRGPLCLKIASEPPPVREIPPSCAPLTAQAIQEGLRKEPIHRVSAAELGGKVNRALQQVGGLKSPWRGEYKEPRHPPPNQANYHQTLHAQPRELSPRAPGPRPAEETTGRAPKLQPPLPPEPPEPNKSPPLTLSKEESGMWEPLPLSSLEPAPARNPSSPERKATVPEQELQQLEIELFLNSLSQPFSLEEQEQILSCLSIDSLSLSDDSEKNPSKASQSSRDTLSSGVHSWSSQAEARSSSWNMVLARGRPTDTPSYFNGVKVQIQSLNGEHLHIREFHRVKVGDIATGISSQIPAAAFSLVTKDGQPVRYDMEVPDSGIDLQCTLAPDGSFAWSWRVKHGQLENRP
UniProt P42684, sequence (whole entry, looked up): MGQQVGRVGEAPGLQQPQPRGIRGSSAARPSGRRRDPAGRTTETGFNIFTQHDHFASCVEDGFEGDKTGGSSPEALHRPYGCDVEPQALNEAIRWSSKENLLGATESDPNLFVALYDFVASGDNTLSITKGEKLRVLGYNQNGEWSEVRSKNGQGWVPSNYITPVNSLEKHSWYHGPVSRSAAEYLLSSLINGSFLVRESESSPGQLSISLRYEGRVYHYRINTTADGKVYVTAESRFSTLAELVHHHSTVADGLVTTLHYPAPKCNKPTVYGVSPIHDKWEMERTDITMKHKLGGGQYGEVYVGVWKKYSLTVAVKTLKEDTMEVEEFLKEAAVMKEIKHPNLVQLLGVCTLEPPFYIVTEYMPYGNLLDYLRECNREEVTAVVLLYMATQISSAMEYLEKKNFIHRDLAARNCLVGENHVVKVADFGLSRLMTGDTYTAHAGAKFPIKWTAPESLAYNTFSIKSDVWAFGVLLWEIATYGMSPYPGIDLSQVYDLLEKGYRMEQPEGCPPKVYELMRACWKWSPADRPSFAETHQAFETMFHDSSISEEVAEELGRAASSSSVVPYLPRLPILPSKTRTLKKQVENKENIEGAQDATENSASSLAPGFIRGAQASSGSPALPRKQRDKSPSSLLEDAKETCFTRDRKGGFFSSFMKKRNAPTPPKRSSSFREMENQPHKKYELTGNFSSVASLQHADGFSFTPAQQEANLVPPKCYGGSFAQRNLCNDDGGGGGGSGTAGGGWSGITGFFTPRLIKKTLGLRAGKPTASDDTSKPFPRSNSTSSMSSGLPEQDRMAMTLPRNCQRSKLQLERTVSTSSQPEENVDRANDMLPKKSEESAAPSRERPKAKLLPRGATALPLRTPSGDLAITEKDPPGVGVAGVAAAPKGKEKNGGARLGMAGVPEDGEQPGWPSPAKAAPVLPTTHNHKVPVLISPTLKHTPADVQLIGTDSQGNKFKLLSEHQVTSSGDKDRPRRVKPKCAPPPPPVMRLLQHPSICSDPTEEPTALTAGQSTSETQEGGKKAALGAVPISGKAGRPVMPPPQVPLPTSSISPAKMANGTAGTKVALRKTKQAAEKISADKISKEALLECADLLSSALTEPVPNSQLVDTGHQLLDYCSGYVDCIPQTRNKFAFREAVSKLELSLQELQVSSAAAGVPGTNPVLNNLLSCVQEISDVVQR
UniProt Q9HC98, sequence (whole entry, looked up): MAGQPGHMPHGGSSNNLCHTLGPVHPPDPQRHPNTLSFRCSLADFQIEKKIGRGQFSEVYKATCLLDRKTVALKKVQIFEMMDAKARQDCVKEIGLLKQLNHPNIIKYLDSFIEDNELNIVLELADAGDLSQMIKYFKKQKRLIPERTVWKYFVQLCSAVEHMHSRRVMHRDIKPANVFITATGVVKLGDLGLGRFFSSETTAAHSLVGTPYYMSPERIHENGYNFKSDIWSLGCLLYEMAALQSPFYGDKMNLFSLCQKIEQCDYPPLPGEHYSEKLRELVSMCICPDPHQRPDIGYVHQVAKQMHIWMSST
UniProt Q8IYT8, sequence (whole entry, looked up): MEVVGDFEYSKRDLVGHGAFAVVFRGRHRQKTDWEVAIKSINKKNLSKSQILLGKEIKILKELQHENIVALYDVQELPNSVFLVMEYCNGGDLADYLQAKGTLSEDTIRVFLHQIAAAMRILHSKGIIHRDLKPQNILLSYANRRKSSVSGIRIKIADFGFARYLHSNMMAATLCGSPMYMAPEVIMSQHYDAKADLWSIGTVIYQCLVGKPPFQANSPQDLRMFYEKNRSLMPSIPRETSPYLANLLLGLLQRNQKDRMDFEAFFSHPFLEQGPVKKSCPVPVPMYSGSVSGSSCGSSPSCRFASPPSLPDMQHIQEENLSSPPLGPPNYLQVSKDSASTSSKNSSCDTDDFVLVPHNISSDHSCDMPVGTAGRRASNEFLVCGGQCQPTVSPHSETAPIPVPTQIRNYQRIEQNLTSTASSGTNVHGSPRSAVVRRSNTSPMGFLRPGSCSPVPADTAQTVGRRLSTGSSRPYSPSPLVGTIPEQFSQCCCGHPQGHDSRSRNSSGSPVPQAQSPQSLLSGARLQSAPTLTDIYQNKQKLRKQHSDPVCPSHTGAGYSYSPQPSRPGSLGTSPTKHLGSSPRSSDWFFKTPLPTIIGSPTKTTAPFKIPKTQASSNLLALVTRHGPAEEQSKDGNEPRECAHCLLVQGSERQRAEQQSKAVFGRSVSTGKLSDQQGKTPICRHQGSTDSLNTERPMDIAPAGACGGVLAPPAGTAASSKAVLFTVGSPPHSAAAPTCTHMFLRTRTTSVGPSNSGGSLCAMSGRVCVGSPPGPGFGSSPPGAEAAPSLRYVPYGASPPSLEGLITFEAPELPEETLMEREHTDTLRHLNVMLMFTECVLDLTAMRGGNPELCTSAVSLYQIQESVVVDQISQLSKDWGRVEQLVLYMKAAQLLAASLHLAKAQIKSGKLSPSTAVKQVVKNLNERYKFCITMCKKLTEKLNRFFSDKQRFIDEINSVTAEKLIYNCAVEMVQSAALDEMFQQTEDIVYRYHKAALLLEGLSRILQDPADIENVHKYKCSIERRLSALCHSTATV

Block 1
SMILES: C[C@H](c1ccc(F)cc1)N(Cc1cccc(C(=O)O)c1)C(=O)c1cnc2ccccc2c1
Technique: competition with immobilised ligand
Concentration: 1 µM
Measurement: remaining binding
MAPK14 (Homo sapiens, UniProt Q16539); binding: 0%
CDK15 (Homo sapiens, UniProt Q96Q40); cell-free assay: 100%
CAMK2B (Homo sapiens, UniProt Q13554); cell-free assay: 100%
FLT3 (Homo sapiens, UniProt P36888); cell-free assay: 100%
MAPKAPK2 (Homo sapiens, UniProt P49137); cell-free assay: 85%
CAMK4 (Homo sapiens, UniProt Q16566); cell-free assay: 100%

Block 2
Target: Hepatocyte nuclear factor 3-alpha (Foxa1, Mus musculus, UniProt P35582, residues 1-468, full length assumed)
Technique: EMSA with sequencing
Molecule type: double-stranded DNA, one strand shown
Sample: in vitro
Concentration: 10 and 20 nM
Notes: whole designed probe, mean of two concentrations, ends assumed
Relative to: negative control set to 0
Reading: higher = stronger binding
Measurement: normalised bound fraction
All sequences stand within: GTGAGCGGTGCCCATTGATGGGGAAC … TTTCACTGGGATCGTGGGGAC
Residues (chain): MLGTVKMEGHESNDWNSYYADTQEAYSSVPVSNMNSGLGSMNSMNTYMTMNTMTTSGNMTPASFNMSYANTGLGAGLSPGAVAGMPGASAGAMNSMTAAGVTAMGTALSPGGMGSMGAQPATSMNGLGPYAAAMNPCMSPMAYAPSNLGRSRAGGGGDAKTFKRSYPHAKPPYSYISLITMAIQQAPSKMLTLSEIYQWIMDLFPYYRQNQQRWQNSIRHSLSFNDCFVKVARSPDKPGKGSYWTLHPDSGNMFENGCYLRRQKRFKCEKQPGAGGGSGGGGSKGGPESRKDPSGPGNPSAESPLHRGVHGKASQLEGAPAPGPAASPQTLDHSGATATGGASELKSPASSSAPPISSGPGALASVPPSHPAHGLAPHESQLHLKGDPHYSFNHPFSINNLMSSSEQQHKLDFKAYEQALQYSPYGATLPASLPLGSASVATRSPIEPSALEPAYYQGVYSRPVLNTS
GGCAAGGTCTCAGGATGTCAAAGGCTCAAGAAATACAAAAATTAGATATGATGAATACTCTTACCAGCCTAACAGGCTTATTCTCTCCTTTAAGCAATCTATATGGGAATCAAATTATTAAAAGGCTACACAGTGGGTGATTAATCAGAATAAGGGTAGTTTTATTTGAAAATTTATAAGGTTCAACTTACTA: 0.499 ratio
AGGTGAATTGGCTGCTTCCATCCTGGCTTGGAACTTCAGACATAGAAGCCTTGGGACTTTCTCAGGACTTCTGACTCATGCTCTCCAGATGCTTGTTTGCTGAATCTCTGTGGATCACGTGACCTTAGCCAGGGATGTTGGTGAAACTGTGTGTTGGTCTAGGTACCTAGCCCATGCTAGGTGCTCATCGAAT: 0.0579 ratio
ATCTTCCCCCTCTTCCTTGCCCCACCAGCTCACCTTCCCGGGTTATTTGCAGATAGGAAAATAAATAAAGCCGGCATTCGTTAACGCAGTTCACGCGCATACTGCTGTTTGCTCTGGATCTAACATGGTCCTTTGGCGACGCCAGGCTCCGGGAGAGCAAAGCACCGTGTCAGGGCCATGATCCGGGGTGGCC: 0.357 ratio
TCTCTTTTAAAAATAGTGTTGGTGATATTTTAATTTTTTTTCCAACCAGTTTATATTTTACCAAACGCTTTTCCAAAGGCTGGACATACAATGTAATCTAGAAGGTGGAAATGTTACCCAGAGATGTCTAGCTTGTTGCTGAACTACAAATTTATTATTTAGAGGAAAGTTTACACTAGACATGTTGTCCAGA: 0.0911 ratio
CAGGTTCATAGATCTAACAAATCAGAGAGCCAAGAGTGAAATCAGGCCAAATTAACATCCATTACACAATGCTGTCTCCCAAGCTCCAAGTCTGTTTACCCTGGGCAAATATTACACTTATATTTCAAAAGCAAAGGGAAGAGAGGGAAGTGGATGCTTCTAAATGCAGGAGAAGCAAATGGAAAATTTTGTG: 0.216 ratio
ATTATAAGTCCCCATTTTCATTATATTCTAAGGAGCTTGAAGATATACTTTTGATTCTTTTTAAACTGTGCATTCGAGAATTAATCTCTTCTTGTTTACTTTTATGTTCAGTCTTTCAATGTTATTTTCTAATTTTTGTGTATCATTTTATTTATCAACACATAAATATATACATTCACATAAGTATACGAGT: 0.45 ratio
TGCTGGGTAAGACACTTAAGGCCAGCGCTGTGACTGAACCATCTGGTTTAAATGCACTTTCTGGCCCTGGCTTCTCCCTGTCCCTTTCACTTCATGTTTACACAGGCTGGGATGCGATGCTGATGGATCATCATAGATTGGTATCGTTCCTTTCTCAAACTCTTTTTTTTCTTCATTAGAAAAGACAAACTTA: 0.38 ratio
ATCTTCCCCCTCTTCCTTGCCCCACCAGCTCACCTTCCCGGGTTATTTGCAGATAGGAAAATAAATAAAGCCGGCATTCGTTAACCCTCTTCTGGCGCAAACTGCTGTTTGCGTATTCGAGATCATGGTCCTTTGGCGACGCCAGGCTCCGGGAGAGCAAAGCACCGTGTCAGGGCCATGATCCGGGGTGGCC: 0.351 ratio

Block 3
Target: Myc proto-oncogene protein, bHLH-zipper, MAX partner unstated (MYC, Homo sapiens, UniProt P01106, residues 368-449)
UniProt P01106, sequence (368-449, looked up): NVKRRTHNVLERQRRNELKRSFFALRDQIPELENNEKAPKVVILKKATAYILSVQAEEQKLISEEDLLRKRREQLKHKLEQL
Technique: protein-binding microarray
Molecule type: double-stranded DNA, one strand shown
Sample: in vitro
Concentration: not given
Notes: k-mer, scored over probes, only values ≥0.25
Reading: higher = stronger binding
Measurement: E-score
CATGCTAA: 0.332
ATGCACAC: 0.373
CACGCGGG: 0.469
AACGTGCC: 0.364
ACATGCTG: 0.426
CATGGTCC: 0.394
GCACGGGA: 0.264
AAAACGTG: 0.427

Block 4
Compound: N#CC(=C(N)Sc1ccc(N)cc1)c1ccccc1C(F)(F)F
Observed: enzyme activity
Action: inhibitor
Concentration: 0.5 µM
Relative to: control
Measurement: remaining activity
ARAF (Homo sapiens, UniProt P10398): 98.8%
LCK (Homo sapiens, UniProt P06239): 107%
GSK3B (Homo sapiens, UniProt P49841): 102%
ABL2 (Homo sapiens, UniProt P42684): 101%
MAP3K14 (Homo sapiens, UniProt Q99558): 111%
ACVR1B (Homo sapiens, UniProt P36896): 101%
FGFR1 (Homo sapiens, UniProt P11362): 108%
MST1R (Homo sapiens, UniProt Q04912): 90.4%
ULK2 (Homo sapiens, UniProt Q8IYT8): 115%
TAOK2 (Homo sapiens, UniProt Q9UL54): 101%
NEK6 (Homo sapiens, UniProt Q9HC98): 101%
NEK1 (Homo sapiens, UniProt Q96PY6): 99%
MAPKAPK2 (Homo sapiens, UniProt P49137): 103%
